Values quoted from earlier work that unrelated publications cite.
UniProt Q8NI60, sequence (whole entry, looked up): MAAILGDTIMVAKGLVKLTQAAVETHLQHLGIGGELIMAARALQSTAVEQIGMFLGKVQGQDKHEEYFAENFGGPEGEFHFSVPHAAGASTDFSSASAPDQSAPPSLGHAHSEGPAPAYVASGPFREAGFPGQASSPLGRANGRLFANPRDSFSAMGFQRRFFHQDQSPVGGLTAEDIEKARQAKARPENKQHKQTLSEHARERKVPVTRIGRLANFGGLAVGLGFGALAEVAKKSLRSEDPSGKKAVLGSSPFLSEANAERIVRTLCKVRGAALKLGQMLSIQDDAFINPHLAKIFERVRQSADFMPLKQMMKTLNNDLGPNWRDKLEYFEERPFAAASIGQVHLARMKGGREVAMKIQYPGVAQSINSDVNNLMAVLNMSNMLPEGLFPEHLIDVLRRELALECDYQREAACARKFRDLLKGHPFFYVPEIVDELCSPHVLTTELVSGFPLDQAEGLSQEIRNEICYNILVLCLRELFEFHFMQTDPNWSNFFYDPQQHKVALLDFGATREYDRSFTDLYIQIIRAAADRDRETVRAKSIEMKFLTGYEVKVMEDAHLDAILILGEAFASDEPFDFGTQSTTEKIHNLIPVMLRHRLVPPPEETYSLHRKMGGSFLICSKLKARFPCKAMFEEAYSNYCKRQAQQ

| Structure (SMILES) | target or system | assay | system | conditions | scale | measurement | result |
| --- | --- | --- | --- | --- | --- | --- | --- |
| O=c1[nH]c(=O)n([C@H]2C[C@H](O)[C@@H](CO)O2)cc1CCC[18F] | – | – | 1-octanol/0.1 M NaH2PO4 | pH 7.47 | – | logP | -0.57 |
| C[C@]12C=CC(=O)N[C@@H]1CC[C@@H]1[C@@H]2CC[C@]2(C)[C@@H](C(=O)Nc3cc(C(F)(F)F)ccc3C(F)(F)F)CC[C@@H]12 | – | – | n-octanol/water | – | – | logP | 5.09 |
| O=C(Nc1cccc2c(=O)cc(-c3nnn[nH]3)oc12)c1ccc(OCCCCc2ccccc2)cc1 | – | – | – | – | – | logP | 4.2 |
| CS(=O)(=O)c1ccc([C@@H](O)[C@@H](CO)NC(=O)C(Cl)Cl)cc1 | – | – | – | – | – | logP | -0.19 |
| C=CC(=O)N1C[C@H](Nc2ncnc3[nH]ccc23)CC[C@@H]1C | – | – | – | – | – | logP | 1.55 |
| CC(C)(O/N=C(\C(=O)N[C@@H]1C(=O)N2C(C(=O)[O-])=C(C[n+]3ccccc3)CS[C@H]12)c1csc(N)n1)C(=O)O | Klebsiella pneumoniae | – | clinical isolate RKI-No_320/16 | – | – | MIC | ≤ 2 µg/mL |
| c1ccc2[nH]c(-c3cscn3)nc2c1 | – | – | – | – | – | logP | 2.34 |
| O=C(OCc1ccccc1)c1ccc(O)cc1 | – | octanol-water | – | – | – | logP | 3.56 |
| O=C(O)c1ccccc1O | – | – | – | – | – | logP | 2.12 |
| O=c1[nH]c(=O)n([C@@H]2O[C@H](CO)[C@@H](O)[C@@H]2F)cc1[125I] | – | – | 1-octanol/0.1 M NaH2PO4 | pH 7.47 | – | logP | 0.05 |
| CCn1c(=O)c2c(nc(/C=C/c3ccc(OC)c(OC)c3)n2C)n(CC)c1=O | – | – | octanol/water | – | – | logP | 2.96 |
| O=C1Nc2ccc(Cl)cc2[C@@](C#CC2CC2)(C(F)(F)F)O1 | – | – | – | – | – | logP | 3.44 |
| CCCCC(CC)COC(=O)c1ccc(O)cc1 (centres unmarked) | – | octanol-water | – | – | – | logP | 4.93 |
| CN(C)[C@@H]1C(O)=C(C(N)=O)C(=O)[C@@]2(O)C(O)=C3C(=O)c4c(O)cccc4[C@@](C)(O)[C@H]3[C@H](O)[C@@H]12 | – | – | – | – | – | logP | -2.13 |
| O=C(O)c1cc([N+](=O)[O-])ccc1NCCCc1ccccc1 | – | – | – | – | – | logP | 4.1 |
| COC(=O)[C@H](c1ccccc1Cl)N1CCc2sccc2C1 | – | – | – | – | – | logP | 2.58 |
| CCCCCCCOC(=O)c1ccc(O)cc1 | – | octanol-water | – | – | – | logP | 4.83 |
| O=c1[nH]c(=O)n([C@@H]2O[C@H](CO)[C@@H](O)[C@@H]2F)cc1CCCC[18F] | – | – | 1-octanol/0.1 M NaH2PO4 | pH 7.47 | – | logP | 0.27 |
| C#C[C@]1(O)CC[C@H]2[C@@H]3CCc4cc(O)ccc4[C@H]3CC[C@@]21C | – | – | – | – | – | logP | 3.81 |
| CC(C)(C)OC(=O)c1ccc(O)cc1 | – | octanol-water | – | – | – | logP | 3.12 |
| [NH2][Pt]([NH2])([Cl])[Cl] | – | – | – | – | – | logP | -2.3 |
| O=c1c(-c2ccc(O)cc2)coc2cc(O)cc(O)c12 | – | – | – | – | – | logP | 2.84 |
| O=C1Nc2ccc(Cl)cc2[C@@](C#CC2CC2)(C(F)(F)F)O1 | – | – | – | Simcyp input parameter | – | logP | 4.01 |
| Nc1cc(C(F)(F)F)c(-c2nc(N3CCOCC3)nc(N3CCOCC3)n2)cn1 | COQ8A (Homo sapiens, UniProt Q8NI60) | enzyme activity | – | 10 µM | reference: untreated | remaining activity | 80% |
| O=c1[nH]c(=O)n([C@@H]2O[C@H](CO)[C@@H](O)[C@@H]2F)cc1CCCCC[18F] | – | – | 1-octanol/0.1 M NaH2PO4 | pH 7.47 | – | logP | 0.74 |
| CC[C@H]1OC(=O)[C@H](C)[C@@H](O[C@H]2C[C@@](C)(OC)[C@@H](O)[C@H](C)O2)[C@H](C)[C@@H](O[C@@H]2O[C@H](C)C[C@H](N(C)C)[C@H]2O)[C@](C)(OC)C[C@@H](C)C(=O)[C@H](C)[C@@H](O)[C@]1(C)O | – | – | – | Simcyp library default value | – | logP | 1.7 |
